# Measurements collected from several papers.
# Compare with care: the assays were run in different laboratories. Numbers after ± are the reported error.
SMILES,assay,test system,setting,how to read,quantity,value
CCn1cc(-c2cc(Cn3ccnc3)cc3c2CCN([C@H](c2cc(OC)ccn2)C2CC2)C3=O)c(C(F)(F)F)n1,,mouse whole blood,"1 µM, 4 h, pH 7.4",,whole blood protein binding,99.8 ± 0.1%
NC12CNCCNCC(NCc3ccc(CNC(=O)CCCC(=O)NCc4ccc(-c5nncnn5)cc4)cc3)(CNCCNC1)CNCCNC2.[64Cu+2],,"athymic nude mice, SW1222 xenograft, small intestine, with contents","24 h p.i., huA33-TCO pretargeting, 24 h interval",,tissue uptake,0.45 ± 0.07 %ID/g
CCc1noc(CC)c1C(=O)O[C@H]1C(C)=C[C@]23C(=O)[C@@H](C=C(CO)[C@@H](O)[C@]12O)[C@H]1[C@@H](C[C@H]3C)C1(C)C,,aqueous buffer,"16 h, pH 7.4, room temperature",,compound recovered,≥ 95%
CC(C)[C@H](NC(=O)CNC(=O)[C@H](CCC(N)=O)NC(=O)[C@H](C)N)C(=O)O,LC-MS/MS,"human, plasma","intravenous, 30 mg/kg three times daily, day 3, first dose, 10 min infusion, geometric mean",,AUC(0-inf),572 ng·h/mL
Brc1ccc(Nc2nc(NN=Cc3c[nH]c4ccccc34)nc(N3CCOCC3)n2)cc1,,mouse liver microsomes,in vivo extrapolated,,CLint,11.9 mL/min
Cc1ccccc1/N=N/c1ccc(/N=N/c2c(O)ccc3ccccc23)c(C)c1,,rat whole blood QC samples,"16.0 µg/L, 4 h, room temperature, short-term stability",,measured concentration,16 µg/L
COc1ccc(/C=C/C2=[N+]3C(=C(CO)c4c(C)cc(/C=C/c5ccc(OC)cc5)n4[B-]3(C)C)C(C)=C2)cc1,,acetonitrile,room temperature,,luminescence quantum yield,3.9 ± 0.6%
C=C(c1ncc(C(=O)O)cn1)c1cc2c(cc1C)C(C)(C)CCC2(C)C,,"Sprague-Dawley rat, male, plasma","oral, 100 mg/kg, 2 h, sesame oil vehicle",,HDL level,65 ± 13.1 mg/dL
Cn1c(=O)oc2ccc(-c3ccc(CC(C#N)NC(=O)C4CNCCCO4)c(F)c3)cc21 (stereo not drawn),,human,"oral, 10 mg once daily, TEAE, multiple ascending dose",,fibrinogen decreased incidence,0%
O=C(O)C1CN(Cc2ccc(-c3noc(-c4ccc(OCC[18F])c(C(F)(F)F)c4)n3)cc2)C1,,C57BL/6 mouse LPS-treated,60 min post-injection,baseline: sham mice,liver uptake,increased
CCc1nc(-c2ccc(-c3ccc(CCC(N)(CO)CO)cc3)cc2)co1,,"Sprague-Dawley rat, male, whole blood","oral, 3 mg/kg, 6 h",,phosphorylation level,69%
COc1cc(OC)cc(C2=C3C(C)=C(I)C(C)=[N+]3[B-](F)(F)n3c(C)c(I)c(C)c32)c1,,DMSO,,,log molar absorptivity,3.55 M⁻¹ cm⁻¹
CCCC[C@@H]1NC(=O)[C@@H](NC(=O)[C@H](CCC(=O)O)NC(=O)CNC(=O)CN2CCN(CC(=O)O)CCN(CC(=O)O)CCN(CC(=O)O)CC2)CCCCNC(=O)C[C@@H](C(N)=O)NC(=O)[C@H](C(C)C)NC(=O)[C@@H]2CCCN2C(=O)[C@H](CCCNC(=N)N)NC(=O)CNC(=O)[C@H](Cc2c[nH]c3ccccc23)NC(=O)[C@H](CCCNC(=N)N)NC(=O)[C@@H](Cc2ccccc2)NC(=O)[C@H](Cc2c[nH]cn2)NC(=O)[C@H](CCC(=O)O)NC1=O [gallium-67 labelled],,"C57 mice, B16/F1 flank melanoma, intestine","intravenous, 0.037 MBq/mouse, 2 h",,intestine uptake,0.37 ± 0.23 %ID
Cc1cc(N2CCC(C#N)(C3(C)CC3)C2=O)cc(C(=O)NCc2cc(F)cc(-c3cnn(C)c3)c2)n1 (racemic),,"male Sprague Dawley rats, urine",dose not given,,unchanged compound in urine,not detected
C=CC(=O)Nc1cc(Nc2nccc(-c3cn(C4CC4)c4ccccc34)n2)c(OC)cc1NC,radiolabelled metabolite profiling,"human male, plasma","oral, 110 mg, 24 h",,plasma concentration,10.5 ng/g

# Excerpt of the above:
SMILES,assay,test system,setting,how to read,quantity,value
C=C(c1ncc(C(=O)O)cn1)c1cc2c(cc1C)C(C)(C)CCC2(C)C,,"Sprague-Dawley rat, male, plasma","oral, 100 mg/kg, 2 h, sesame oil vehicle",,HDL level,65 ± 13.1 mg/dL
